Published values from different studies.
Compare with care: the assays were run in different laboratories. Numbers after ± are the reported error.
GLP1R: Glucagon-like peptide 1 receptor (GLP1R, Homo sapiens, UniProt P43220)
Sequence of UniProt P08588 (whole entry, looked up): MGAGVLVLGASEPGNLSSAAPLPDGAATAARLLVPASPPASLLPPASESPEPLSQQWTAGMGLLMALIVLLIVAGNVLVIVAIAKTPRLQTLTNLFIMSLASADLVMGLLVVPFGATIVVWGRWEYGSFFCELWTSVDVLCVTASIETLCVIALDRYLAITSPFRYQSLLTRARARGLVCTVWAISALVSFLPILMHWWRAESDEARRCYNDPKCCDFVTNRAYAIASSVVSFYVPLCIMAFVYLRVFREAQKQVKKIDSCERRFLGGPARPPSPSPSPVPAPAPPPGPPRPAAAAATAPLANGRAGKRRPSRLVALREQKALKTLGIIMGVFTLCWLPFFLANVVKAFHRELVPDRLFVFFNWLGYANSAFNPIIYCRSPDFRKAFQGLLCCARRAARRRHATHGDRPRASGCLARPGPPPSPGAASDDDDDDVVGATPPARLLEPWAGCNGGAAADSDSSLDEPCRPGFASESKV
Sequence of UniProt P16152 (whole entry, looked up): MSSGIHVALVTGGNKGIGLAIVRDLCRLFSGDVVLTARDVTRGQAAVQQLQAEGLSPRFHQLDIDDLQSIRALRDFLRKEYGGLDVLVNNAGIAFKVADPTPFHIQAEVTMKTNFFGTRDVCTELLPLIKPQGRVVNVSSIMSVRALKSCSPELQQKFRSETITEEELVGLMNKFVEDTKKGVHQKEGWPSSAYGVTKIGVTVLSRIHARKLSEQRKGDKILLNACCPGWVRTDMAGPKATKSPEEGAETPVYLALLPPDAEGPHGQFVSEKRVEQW
Sequence of UniProt Q8NET8 (whole entry, unmodified, looked up): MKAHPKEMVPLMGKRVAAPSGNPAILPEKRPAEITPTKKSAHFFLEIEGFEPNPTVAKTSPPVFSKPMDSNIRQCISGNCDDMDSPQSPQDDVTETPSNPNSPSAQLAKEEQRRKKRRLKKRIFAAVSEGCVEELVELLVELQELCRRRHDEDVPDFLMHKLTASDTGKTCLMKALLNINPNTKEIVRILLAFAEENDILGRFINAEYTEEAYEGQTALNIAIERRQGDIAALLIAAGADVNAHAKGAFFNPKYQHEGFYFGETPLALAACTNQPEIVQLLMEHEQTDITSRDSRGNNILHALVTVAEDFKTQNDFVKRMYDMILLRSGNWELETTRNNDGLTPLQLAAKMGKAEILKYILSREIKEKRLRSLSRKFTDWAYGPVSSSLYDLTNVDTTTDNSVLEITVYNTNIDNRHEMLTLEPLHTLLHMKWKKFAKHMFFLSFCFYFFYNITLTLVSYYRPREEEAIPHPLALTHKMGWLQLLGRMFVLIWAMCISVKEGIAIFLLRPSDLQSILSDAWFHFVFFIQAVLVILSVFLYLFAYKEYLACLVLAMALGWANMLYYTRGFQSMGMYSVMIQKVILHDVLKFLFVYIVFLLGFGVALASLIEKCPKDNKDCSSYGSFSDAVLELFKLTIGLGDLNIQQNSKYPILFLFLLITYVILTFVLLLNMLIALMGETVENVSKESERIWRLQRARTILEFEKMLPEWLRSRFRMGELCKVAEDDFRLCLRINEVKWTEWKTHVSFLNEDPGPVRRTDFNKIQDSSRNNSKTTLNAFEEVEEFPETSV
Sequence of UniProt P0DW57 (whole entry, looked up): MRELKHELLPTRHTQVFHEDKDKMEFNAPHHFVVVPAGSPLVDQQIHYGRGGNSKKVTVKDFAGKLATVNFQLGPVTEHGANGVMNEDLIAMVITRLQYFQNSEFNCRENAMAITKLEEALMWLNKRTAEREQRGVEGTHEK
Sequence of UniProt Q96GG9 (whole entry, looked up): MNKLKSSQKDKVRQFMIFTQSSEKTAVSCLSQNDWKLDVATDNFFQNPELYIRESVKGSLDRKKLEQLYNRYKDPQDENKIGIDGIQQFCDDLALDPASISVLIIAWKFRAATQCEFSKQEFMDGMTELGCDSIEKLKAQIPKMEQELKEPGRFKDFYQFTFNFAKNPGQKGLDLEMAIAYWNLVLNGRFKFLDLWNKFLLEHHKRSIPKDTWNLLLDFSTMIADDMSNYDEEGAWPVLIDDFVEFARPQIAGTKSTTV

| SMILES | tested on | test | test system | setting | scale | measurement | result |
| --- | --- | --- | --- | --- | --- | --- | --- |
| CC[C@H](C)[C@H](NC(=O)[C@H](Cc1ccccc1)NC(=O)[C@H](CCC(=O)O)NC(=O)[C@H](CCCNC(=N)N)NC(=O)[C@H](C)NC(=O)[C@H](C)NC(=O)[C@H](CCC(N)=O)NC(=O)[C@H](CCCCNc1c(NCCCCCN(O)C(=O)CCC(=O)NCCCCCN(O)C(=O)CCC(=O)NCCCCCN(O)C(C)=O)c(=O)c1=O)NC(=O)[C@H](CCC(=O)O)NC(=O)[C@H](CC(C)C)NC(=O)[C@H](Cc1ccc(O)cc1)NC(=O)[C@H](CO)NC(=O)[C@H](CO)NC(=O)[C@@H](NC(=O)[C@H](CC(=O)O)NC(=O)[C@H](CO)NC(=O)[C@@H](NC(=O)[C@H](Cc1ccccc1)NC(=O)[C@@H](NC(=O)CNC(=O)[C@H](CCC(=O)O)NC(=O)[C@H](C)NC(=O)CCc1cnc[nH]1)[C@@H](C)O)[C@@H](C)O)C(C)C)C(=O)N[C@@H](C)C(=O)N[C@@H](Cc1c[nH]c2ccccc12)C(=O)N[C@@H](CC(C)C)C(=O)N[C@H](C(=O)N[C@@H](CCCNC(=N)N)C(=O)NCC(=O)N[C@@H](CCCNC(=N)N)C(=O)N[C@@H](CCCCNC(=O)COCCOCCNC(=O)COCCOCCNC(=O)CC[C@H](NC(=O)CCCCCCCCCCCCCCCCC(=O)O)C(=O)O)C(=O)NCC(=O)NCC(=O)N[C@@H](CO)C(=O)N[C@@H](CCCCNc1c(NCCCCCN(O)C(=O)CCC(=O)NCCCCCN(O)C(=O)CCC(=O)NCCCCCN(O)C(C)=O)c(=O)c1=O)C(=O)O)C(C)C | GLP1R | cAMP reporter gene, agonist, CRE luciferase | BHK | with Zr, 0% HSA | – | EC50 | 0.0076 nM |
| CC[C@H](C)[C@@H]1NC(=O)[C@@H]2CCCN2C(=O)[C@H](CC(C)C)NC(=O)[C@H](CC(C)C)NC(=O)CNC(=O)[C@@H](NC(=O)[C@@H](NC(=O)[C@H](CC(=O)O)NC(=O)CNC(=O)[C@@H](NC(=O)[C@H](C)NC(=O)CNC(=O)[C@H](CCCCN)NC(=O)[C@H](CC(C)C)NC(=O)[C@H](CC(C)C)NC(=O)[C@H](CCCCN)NC(=O)CNC(=O)[C@@H](NC(=O)[C@@H](N)CC(C)C)C(C)C)C(C)C)C(C)C)CSSC[C@@H](C(=O)O)NC1=O | – | RNA-seq, refers to: Fam20c | mouse, traumatic brain injury model, frontal cortex and hippocampus | dose not given | baseline: TBI alone | log2 fold change | -0.935 |
| C[C@H]1CN(c2n[nH]c3nc(N[C@H]4CC[C@H](NS(=O)(=O)CCC(F)(F)F)CC4)ncc23)CCO1 | Carbonyl reductase [NADPH] 1 (CBR1, Homo sapiens, UniProt P16152) | biochemical | – | – | – | IC50 | ≥ 20000 nM |
| Nc1ncnc2c1ncn2[C@@H]1O[C@@H]2COP(=O)(O)OP(=O)(O)OC[C@H]3O[C@@H](O[C@H]2[C@H]1O)[C@H](O)[C@@H]3O | Thoeris anti-defense 1 (tad1, Bacillus phage SBSphiJ7, UniProt P0DW57) | binding | – | – | – | Kd | 210 nM |
| CC[C@H](C)[C@H](NC(=O)[C@H](Cc1ccccc1)NC(=O)[C@H](CCC(=O)O)NC(=O)[C@H](CCCNC(=N)N)NC(=O)[C@H](C)NC(=O)[C@H](C)NC(=O)[C@H](CCC(N)=O)NC(=O)[C@H](CCC(=O)O)NC(=O)[C@H](CCC(=O)O)NC(=O)[C@H](CC(C)C)NC(=O)[C@H](Cc1ccc(O)cc1)NC(=O)[C@H](CO)NC(=O)[C@H](CO)NC(=O)[C@@H](NC(=O)[C@H](CC(=O)O)NC(=O)[C@H](CO)NC(=O)[C@@H](NC(=O)[C@H](Cc1ccccc1)NC(=O)[C@@H](NC(=O)CNC(=O)[C@H](CCC(=O)O)NC(=O)[C@H](C)NC(=O)CCc1cnc[nH]1)[C@@H](C)O)[C@@H](C)O)C(C)C)C(=O)N[C@@H](C)C(=O)N[C@@H](Cc1c[nH]c2ccccc12)C(=O)N[C@@H](CC(C)C)C(=O)N[C@H](C(=O)N[C@@H](CCCNC(=N)N)C(=O)NCC(=O)N[C@@H](CCCNC(=N)N)C(=O)N[C@@H](CCCCNC(=O)COCCOCCNC(=O)COCCOCCNC(=O)CC[C@H](NC(=O)CCCCCCCCCCCCCCCCC(=O)O)C(=O)O)C(=O)NCC(=O)NCC(=O)N[C@@H](CO)C(=O)N[C@@H](CCSC)C(=O)N[C@H](C(=O)N[C@@H](CCCCNc1c(NCCCCCN(O)C(=O)CCC(=O)NCCCCCN(O)C(=O)CCC(=O)NCCCCCN(O)C(C)=O)c(=O)c1=O)C(=O)O)C(C)C)C(C)C | GLP1R | cAMP reporter gene, agonist, CRE luciferase | BHK | with Zr, 1% HSA | – | EC50 | 0.1 nM |
| Nc1nc2c(ncn2[C@@H]2O[C@@H]3COP(=O)(O)O[C@H]4[C@@H](O)[C@H](n5cnc6c(=O)[nH]c(N)nc65)O[C@@H]4COP(=O)(O)O[C@H]3[C@H]2O)c(=O)[nH]1 | Cell cycle histidine kinase CckA, CA domain (Caulobacter vibrioides, UniProt Q9X688) | isothermal titration calorimetry | Caulobacter crescentus | 12 °C, added: AMPPNP 5 mM | – | Kd | 25000 nM |
| CCCc1cc(O)c2c(c1)OC(C)(C)[C@@H]1CCC(C)=C[C@@H]21 | Transient receptor potential cation channel subfamily V member 3 (TRPV3, Homo sapiens, UniProt Q8NET8, N561A) | calcium uptake, agonist | HEK293S | mutant N561A, site 1 | – | EC50 | 20300 ± 1410 nM |
| Cc1nn(-c2ccccc2)c2c1[C@H](c1cscn1)[C@H](NC(=O)c1cccc(C(F)(F)F)c1)C(=O)N2 | DCN1-like protein 1 (Homo sapiens, UniProt Q96GG9) | – | – | – | – | IC50 | > 15000 nM |
| C[C@@H](O)[C@@H](CO)NC(=O)[C@@H](CCCNC(=N)N)NC(=O)[C@@H]1CCCN1C(=O)[C@@H]1CSSC[C@H](NC(=O)[C@H](Cc2ccccc2)NC(=O)CN2CCN(CC(=O)O)CCN(CC(=O)O)CCN(CC(=O)O)CC2)C(=O)N[C@@H](Cc2ccc(O)cc2)C(=O)N[C@@H](Cc2ccccc2)C(=O)N[C@@H](CCC(N)=O)C(=O)N[C@@H](CC(N)=O)C(=O)N1 [gallium-68 labelled] | – | – | healthy Wistar rat, small intestine | intravenous, 8 MBq, 60 min, individual animals | – | tissue uptake | 0.07 %ID/g |
| CO[C@H]1C[C@@H]2CC[C@@H](C)[C@@](O)(O2)C(=O)C(=O)N2CCCC[C@H]2C(=O)O[C@H]([C@H](C)C[C@@H]2CC[C@@H](OC(=O)NCCOCCOCCOCCOCCOCCOCCOCCOCCC(=O)N3CCc4cc(Cn5nc(-c6ccc7oc(N)nc7c6)c6c(N)ncnc65)ccc4C3)[C@H](OC)C2)C[C@@H](O)[C@H](C)/C=C(\C)[C@@H](O)[C@@H](OC)C(=O)[C@H](C)C[C@H](C)/C=C/C=C/C=C/1C | – | – | patients with advanced solid tumours | intravenous, 1.6 mg/3 mg weekly, any grade | – | incidence of Nausea TEAE | 20% |
| CC[C@H](C)[C@H](NC(=O)[C@H](Cc1ccccc1)NC(=O)[C@H](CCC(=O)O)NC(=O)[C@H](CCCNC(=N)N)NC(=O)[C@H](C)NC(=O)[C@H](C)NC(=O)[C@H](CCC(N)=O)NC(=O)[C@H](CCC(=O)O)NC(=O)[C@H](CCC(=O)O)NC(=O)[C@H](CC(C)C)NC(=O)[C@H](Cc1ccc(O)cc1)NC(=O)[C@H](CO)NC(=O)[C@H](CO)NC(=O)[C@@H](NC(=O)[C@H](CC(=O)O)NC(=O)[C@H](CO)NC(=O)[C@@H](NC(=O)[C@H](Cc1ccccc1)NC(=O)[C@@H](NC(=O)CNC(=O)[C@H](CCC(=O)O)NC(=O)[C@H](C)NC(=O)CCc1c[nH]cn1)[C@@H](C)O)[C@@H](C)O)C(C)C)C(=O)N[C@@H](C)C(=O)N[C@@H](Cc1c[nH]c2ccccc12)C(=O)N[C@@H](CC(C)C)C(=O)N[C@H](C(=O)N[C@@H](CCCNC(=N)N)C(=O)NCC(=O)N[C@@H](CCCNC(=N)N)C(=O)N[C@@H](CCCCNC(=O)COCCOCCNC(=O)COCCOCCNC(=O)CC[C@H](NC(=O)CCCCCCCCCCCCCCCCC(=O)O)C(=O)O)C(=O)NCC(=O)NCC(=O)N[C@@H](CO)C(=O)N[C@@H](CCCCNc1c(NCCCCCN(O)C(=O)CCC(=O)NCCCCCN(O)C(=O)CCC(=O)NCCCCCN(O)C(C)=O)c(=O)c1=O)C(=O)O)C(C)C [zirconium-89 labelled] | – | ex vivo gamma counting | rat, intestine content | subcutaneous, 3 nmol/kg, 168 h, added: [89Zr]-labelled peptide | – | tissue uptake | 0.02 %ID/g |
| COc1cc(Nc2ncc(F)c(Nc3ccc4c(n3)NC(=O)C(C)(C)O4)n2)cc(OC)c1OC | Beta-1 adrenergic receptor (ADRB1, Homo sapiens, UniProt P08588) | – | – | – | – | IC50 | > 10000 nM |
| CC[C@H](C)[C@H](NC(=O)[C@H](Cc1ccccc1)NC(=O)[C@H](CCC(=O)O)NC(=O)[C@H](CCCNC(=N)N)NC(=O)[C@H](C)NC(=O)[C@H](C)NC(=O)[C@H](CCC(N)=O)NC(=O)[C@H](CCC(=O)O)NC(=O)[C@H](CCC(=O)O)NC(=O)[C@H](CC(C)C)NC(=O)[C@H](Cc1ccc(O)cc1)NC(=O)[C@H](CO)NC(=O)[C@H](CO)NC(=O)[C@@H](NC(=O)[C@H](CC(=O)O)NC(=O)[C@H](CO)NC(=O)[C@@H](NC(=O)[C@H](Cc1ccccc1)NC(=O)[C@@H](NC(=O)CNC(=O)[C@H](CCC(=O)O)NC(=O)[C@H](C)NC(=O)CCc1cnc[nH]1)[C@@H](C)O)[C@@H](C)O)C(C)C)C(=O)N[C@@H](C)C(=O)N[C@@H](Cc1c[nH]c2ccccc12)C(=O)N[C@@H](CC(C)C)C(=O)N[C@H](C(=O)N[C@@H](CCCCNc1c(NCCCCCN(O)C(=O)CCC(=O)NCCCCCN(O)C(=O)CCC(=O)NCCCCCN(O)C(C)=O)c(=O)c1=O)C(=O)NCC(=O)N[C@@H](CCCNC(=N)N)C(=O)N[C@@H](CCCCNc1c(NCCCCCN(O)C(=O)CCC(=O)NCCCCCN(O)C(=O)CCC(=O)NCCCCCN(O)C(C)=O)c(=O)c1=O)C(=O)NCC(=O)NCC(=O)N[C@@H](CO)C(=O)N[C@@H](CCCCNC(=O)COCCOCCNC(=O)COCCOCCNC(=O)CC[C@H](NC(=O)CCCCCCCCCCCCCCCCC(=O)O)C(=O)O)C(=O)O)C(C)C | GLP1R | cAMP reporter gene, agonist, CRE luciferase | BHK | without Zr, 0% HSA | – | EC50 | 0.016 nM |

Some of these lines once more:
| SMILES | tested on | test | test system | setting | scale | measurement | result |
| --- | --- | --- | --- | --- | --- | --- | --- |
| CC[C@H](C)[C@H](NC(=O)[C@H](Cc1ccccc1)NC(=O)[C@H](CCC(=O)O)NC(=O)[C@H](CCCNC(=N)N)NC(=O)[C@H](C)NC(=O)[C@H](C)NC(=O)[C@H](CCC(N)=O)NC(=O)[C@H](CCC(=O)O)NC(=O)[C@H](CCC(=O)O)NC(=O)[C@H](CC(C)C)NC(=O)[C@H](Cc1ccc(O)cc1)NC(=O)[C@H](CO)NC(=O)[C@H](CO)NC(=O)[C@@H](NC(=O)[C@H](CC(=O)O)NC(=O)[C@H](CO)NC(=O)[C@@H](NC(=O)[C@H](Cc1ccccc1)NC(=O)[C@@H](NC(=O)CNC(=O)[C@H](CCC(=O)O)NC(=O)[C@H](C)NC(=O)CCc1c[nH]cn1)[C@@H](C)O)[C@@H](C)O)C(C)C)C(=O)N[C@@H](C)C(=O)N[C@@H](Cc1c[nH]c2ccccc12)C(=O)N[C@@H](CC(C)C)C(=O)N[C@H](C(=O)N[C@@H](CCCNC(=N)N)C(=O)NCC(=O)N[C@@H](CCCNC(=N)N)C(=O)N[C@@H](CCCCNC(=O)COCCOCCNC(=O)COCCOCCNC(=O)CC[C@H](NC(=O)CCCCCCCCCCCCCCCCC(=O)O)C(=O)O)C(=O)NCC(=O)NCC(=O)N[C@@H](CO)C(=O)N[C@@H](CCCCNc1c(NCCCCCN(O)C(=O)CCC(=O)NCCCCCN(O)C(=O)CCC(=O)NCCCCCN(O)C(C)=O)c(=O)c1=O)C(=O)O)C(C)C [zirconium-89 labelled] | – | ex vivo gamma counting | rat, intestine content | subcutaneous, 3 nmol/kg, 168 h, added: [89Zr]-labelled peptide | – | tissue uptake | 0.02 %ID/g |
